# Published values collected from several papers.
# Lines come from different studies, so protocols differ. Numbers after ± are the reported error.
# Cell line: HL-60
SMILES,test,system,setting,how to read,endpoint,value
Cc1cc(Br)ccc1CN1C(=O)C2=C(C[C@@H](C)N(Cc3cccc(C#N)c3)C2)N2CCN=C12,"cell growth, MTS",,,,IC50,34.4 ± 2.13 nM
CCn1cc(-c2cc(Cn3ccnc3)cc3c2CCN([C@H](c2cc(OC)ccn2)C2CC2)C3=O)c(C(F)(F)F)n1,"cell growth, inhibitor",,120 h,,EC50,8470 nM
CC(=O)c1n[nH]c2ccc(-c3cnc4ccc(N(C)C5CCOCC5)nn34)cc12,IL6 release,,"24 h, added: LPS 0.2 µg/mL",,IC50,630 ± 60 nM
C[C@@H]1CC2=C(CN1Cc1cccc(C#N)c1)C(=O)N(Cc1cccc(Br)c1)C1=NCCN12,"cell growth, MTS",,,,IC50,22.4 ± 1.62 nM
Cc1cc(C)nc(SCC(=O)Nc2ncc(Cc3cccc(OCc4cn(Cc5ccccc5C)nn4)c3)s2)n1,"cell viability, MTS",,10 µM,,inhibition,16.6 ± 4.7%
c1cc(N2CCCC2)ccc1-c1cc2ncc(OCC3CCNCC3)nc2cc1-c1ccc(N2CCCC2)cc1,"cell proliferation, XTT",,7 days,,EC50,5400 ± 130 nM
C[C@@H]1CC2=C(CN1Cc1cccc(C#N)c1)C(=O)N(Cc1ccc(F)c(C(F)(F)F)c1)C1=NCCN12,"cell growth, MTS",,,,IC50,12.8 ± 1.15 nM
Cc1cc(C)nc(SCC(=O)Nc2ncc(Cc3cccc(OCc4cn(Cc5ccc(OCCN6CCOCC6)cc5)nn4)c3)s2)n1,"cell viability, MTS",,10 µM,,inhibition,13.4 ± 9%
c1ccc(Oc2ccc(Nc3ccc4ncc(OCC5CCNCC5)nc4c3)cc2)cc1,"cell proliferation, XTT",,7 days,,EC50,1200 ± 120 nM
Sc1ncnc2nc[nH]c12,radioactive counts,,"2 µM, 14C-labelled compound",higher = more incorporation,DNA radioactivity,299 a.u.
C[C@H]1C2=C(CCN1Cc1cccc(C#N)c1)N1CCN=C1N(Cc1ccc(Br)cc1)C2=O,"cell growth, MTS",,,,IC50,> 250 nM
O=C(c1ccc2[nH]ccc2c1)N1CCN(S(=O)(=O)c2ccc3[nH]c(=O)oc3c2)CC1,"NUDT15 inhibitor, mass spectrometry",,"10 µM, 16 h, added: 6-thioguanine 0 µM",higher = more incorporation,6-thio-GTP in RNA,8.8 a.u.
Cc1cc(C)n(C(=S)[S][Au][PH](CCCCCC[PH]([Au][S]C(=S)n2nc(C)cc2C)(c2ccccc2)c2ccccc2)(c2ccccc2)c2ccccc2)n1,"cell growth, NCI-60 screen",,leukemia,,log10 TGI,-6.19
O=C1NCCc2[nH]c(-c3ccncc3)cc21,"cytotoxicity, MTS",NCI60 panel,acute myeloid leukaemia,,IC50,247 nM
c1ccc(COc2ccc(Nc3ccc4ncc(OCC5CCNCC5)nc4c3)cc2)cc1,"cell proliferation, XTT",,7 days,,EC50,1400 ± 400 nM
C=Cc1c(C)c2cc3nc(c4c5[nH]c(cc6nc(cc1[nH]2)C(C)=C6CC)c(C)c5C(=O)C4)[C@@H](CCC(=O)O)[C@@H]3C,"metabolic activity, XTT",,"1 h, dark",,ED50,1600 nM
CN1C(=O)C(=O)c2cc3c(c4c2c1cc1ccccc14)OCO3,"cytotoxicity, XTT",,"50 µg/mL, 48 h",,inhibition,< 50%
